Assay results from different studies.
Each numbered part is a random draw from the data of one study; scales do not carry over between parts. Values joined by “and” are separate records of one study, mostly repeats; a detail may differ.
Chain of UniProt P29320 (whole entry, looked up): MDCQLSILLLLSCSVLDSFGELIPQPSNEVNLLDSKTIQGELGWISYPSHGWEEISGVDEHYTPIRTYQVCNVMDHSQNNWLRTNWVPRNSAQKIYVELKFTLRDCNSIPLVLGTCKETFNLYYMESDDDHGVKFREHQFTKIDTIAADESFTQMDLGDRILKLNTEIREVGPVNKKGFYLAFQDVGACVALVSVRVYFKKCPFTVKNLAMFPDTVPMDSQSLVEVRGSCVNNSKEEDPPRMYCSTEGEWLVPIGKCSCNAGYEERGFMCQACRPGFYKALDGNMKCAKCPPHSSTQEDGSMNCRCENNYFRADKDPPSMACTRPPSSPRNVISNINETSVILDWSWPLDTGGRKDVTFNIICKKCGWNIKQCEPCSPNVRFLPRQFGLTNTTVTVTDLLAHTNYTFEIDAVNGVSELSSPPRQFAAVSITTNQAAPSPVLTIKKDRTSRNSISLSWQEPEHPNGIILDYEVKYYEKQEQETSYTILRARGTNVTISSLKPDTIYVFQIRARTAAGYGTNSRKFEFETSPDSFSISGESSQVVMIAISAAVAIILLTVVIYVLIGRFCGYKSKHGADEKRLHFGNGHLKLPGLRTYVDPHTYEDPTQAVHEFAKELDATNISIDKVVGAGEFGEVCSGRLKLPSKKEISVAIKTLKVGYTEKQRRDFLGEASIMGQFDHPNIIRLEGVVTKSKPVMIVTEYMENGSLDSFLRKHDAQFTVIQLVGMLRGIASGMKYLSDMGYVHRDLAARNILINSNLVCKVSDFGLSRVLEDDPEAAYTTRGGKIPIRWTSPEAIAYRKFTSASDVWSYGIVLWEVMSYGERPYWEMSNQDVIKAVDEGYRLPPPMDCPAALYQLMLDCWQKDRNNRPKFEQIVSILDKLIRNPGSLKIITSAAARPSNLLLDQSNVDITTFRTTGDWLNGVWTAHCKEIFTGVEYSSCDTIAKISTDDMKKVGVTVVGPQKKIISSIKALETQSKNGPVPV
Chain of UniProt Q08881 (whole entry, looked up): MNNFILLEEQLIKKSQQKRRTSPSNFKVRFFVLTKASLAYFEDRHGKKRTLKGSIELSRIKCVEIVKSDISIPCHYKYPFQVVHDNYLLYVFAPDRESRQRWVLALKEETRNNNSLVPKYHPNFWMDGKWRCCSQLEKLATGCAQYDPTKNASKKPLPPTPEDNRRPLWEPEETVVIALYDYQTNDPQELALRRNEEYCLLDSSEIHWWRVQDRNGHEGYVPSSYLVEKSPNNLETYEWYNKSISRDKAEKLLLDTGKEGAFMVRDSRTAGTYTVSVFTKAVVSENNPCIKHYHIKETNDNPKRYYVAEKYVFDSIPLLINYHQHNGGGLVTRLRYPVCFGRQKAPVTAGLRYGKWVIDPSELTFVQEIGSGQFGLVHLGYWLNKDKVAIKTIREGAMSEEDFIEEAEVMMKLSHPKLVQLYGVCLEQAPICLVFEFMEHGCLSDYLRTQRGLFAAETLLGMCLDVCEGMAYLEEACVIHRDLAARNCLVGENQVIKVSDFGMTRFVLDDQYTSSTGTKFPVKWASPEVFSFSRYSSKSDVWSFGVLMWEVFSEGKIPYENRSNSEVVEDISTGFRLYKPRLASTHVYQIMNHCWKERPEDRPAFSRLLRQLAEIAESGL

Sample 1
Target: DNA polymerase theta, ATPase domain (POLQ, Homo sapiens, UniProt O75417)
Chain of UniProt O75417 (whole entry, unmodified, looked up): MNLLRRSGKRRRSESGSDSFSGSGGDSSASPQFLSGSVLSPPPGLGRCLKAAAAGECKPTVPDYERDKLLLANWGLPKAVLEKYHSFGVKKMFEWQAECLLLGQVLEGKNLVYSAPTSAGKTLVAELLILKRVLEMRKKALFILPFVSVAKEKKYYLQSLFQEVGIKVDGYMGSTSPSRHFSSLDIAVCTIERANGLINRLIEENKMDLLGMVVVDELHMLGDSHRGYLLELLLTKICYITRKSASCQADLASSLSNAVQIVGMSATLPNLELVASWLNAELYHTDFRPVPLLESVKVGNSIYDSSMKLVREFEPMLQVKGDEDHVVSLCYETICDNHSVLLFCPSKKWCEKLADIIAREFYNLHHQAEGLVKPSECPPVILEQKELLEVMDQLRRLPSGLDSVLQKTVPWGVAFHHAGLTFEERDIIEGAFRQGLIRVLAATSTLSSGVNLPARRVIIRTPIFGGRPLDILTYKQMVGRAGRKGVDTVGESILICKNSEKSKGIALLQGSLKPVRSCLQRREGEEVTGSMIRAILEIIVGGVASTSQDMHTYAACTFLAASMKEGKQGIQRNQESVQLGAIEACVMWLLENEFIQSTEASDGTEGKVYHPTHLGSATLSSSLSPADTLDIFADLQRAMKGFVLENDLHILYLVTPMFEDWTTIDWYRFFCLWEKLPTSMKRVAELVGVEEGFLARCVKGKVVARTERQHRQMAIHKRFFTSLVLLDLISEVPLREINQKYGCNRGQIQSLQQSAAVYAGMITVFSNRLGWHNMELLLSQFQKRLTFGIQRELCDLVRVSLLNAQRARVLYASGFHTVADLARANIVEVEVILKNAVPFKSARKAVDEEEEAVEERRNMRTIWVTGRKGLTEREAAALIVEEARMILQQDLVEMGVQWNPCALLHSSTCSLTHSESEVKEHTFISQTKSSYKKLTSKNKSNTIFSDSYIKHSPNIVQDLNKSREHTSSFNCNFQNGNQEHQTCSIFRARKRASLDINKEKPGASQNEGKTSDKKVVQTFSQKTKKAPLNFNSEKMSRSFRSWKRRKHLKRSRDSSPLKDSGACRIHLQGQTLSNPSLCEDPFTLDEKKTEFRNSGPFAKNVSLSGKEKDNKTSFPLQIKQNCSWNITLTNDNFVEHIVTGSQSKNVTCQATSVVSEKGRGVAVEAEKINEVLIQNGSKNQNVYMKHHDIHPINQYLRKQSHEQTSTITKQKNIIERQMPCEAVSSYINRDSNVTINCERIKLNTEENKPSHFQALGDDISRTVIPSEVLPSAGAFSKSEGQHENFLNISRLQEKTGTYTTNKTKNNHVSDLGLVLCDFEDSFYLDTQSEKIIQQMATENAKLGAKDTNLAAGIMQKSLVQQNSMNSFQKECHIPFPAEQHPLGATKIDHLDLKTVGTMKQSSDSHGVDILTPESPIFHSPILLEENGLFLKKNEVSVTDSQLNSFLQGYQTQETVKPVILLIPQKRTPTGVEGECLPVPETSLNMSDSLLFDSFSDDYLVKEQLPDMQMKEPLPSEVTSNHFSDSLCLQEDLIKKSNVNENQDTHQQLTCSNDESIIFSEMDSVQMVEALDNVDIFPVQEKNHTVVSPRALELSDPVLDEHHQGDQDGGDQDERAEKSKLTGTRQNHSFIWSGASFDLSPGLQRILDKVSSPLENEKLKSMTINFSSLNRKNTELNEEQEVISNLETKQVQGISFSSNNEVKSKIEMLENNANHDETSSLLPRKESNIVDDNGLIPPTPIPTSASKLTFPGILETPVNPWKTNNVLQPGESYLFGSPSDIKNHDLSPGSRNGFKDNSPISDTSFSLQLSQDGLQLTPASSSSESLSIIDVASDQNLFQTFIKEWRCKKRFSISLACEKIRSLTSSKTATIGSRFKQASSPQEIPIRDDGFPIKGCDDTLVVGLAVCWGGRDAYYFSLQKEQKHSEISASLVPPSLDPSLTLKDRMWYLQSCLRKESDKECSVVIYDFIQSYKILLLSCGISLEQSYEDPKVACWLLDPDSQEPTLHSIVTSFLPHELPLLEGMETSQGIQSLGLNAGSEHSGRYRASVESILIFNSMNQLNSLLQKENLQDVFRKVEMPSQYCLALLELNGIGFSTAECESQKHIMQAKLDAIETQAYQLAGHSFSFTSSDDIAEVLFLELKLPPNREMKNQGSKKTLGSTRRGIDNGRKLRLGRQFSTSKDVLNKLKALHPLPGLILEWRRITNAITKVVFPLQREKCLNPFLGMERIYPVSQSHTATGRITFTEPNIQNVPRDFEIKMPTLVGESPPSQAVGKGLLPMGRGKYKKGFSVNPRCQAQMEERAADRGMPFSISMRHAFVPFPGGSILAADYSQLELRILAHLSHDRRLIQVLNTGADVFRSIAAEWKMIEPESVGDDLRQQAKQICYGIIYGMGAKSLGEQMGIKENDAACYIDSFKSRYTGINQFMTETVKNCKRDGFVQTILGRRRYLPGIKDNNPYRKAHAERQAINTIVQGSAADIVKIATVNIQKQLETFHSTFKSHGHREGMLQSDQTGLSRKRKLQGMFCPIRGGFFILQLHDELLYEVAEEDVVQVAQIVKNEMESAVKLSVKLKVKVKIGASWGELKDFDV
Observed: enzyme activity
Action: inhibitor
Tested at: 77 µM
Relative to: untreated
The remaining activity of `NCCCNCCSP(=O)(O)O` is reported as 103%.
For `CCCn1c(=O)[nH]c(=O)c2nc[nH]c21`, the remaining activity was 98.2%.
For `CCOc1cc(CC(=O)N[C@@H](CC(C)C)c2ccccc2N2CCCCC2)ccc1C(=O)O`, the remaining activity was 95.7% and 87.4%.
The remaining activity of `COc1ccc(-c2cc(=O)c3c(O)cc(O)cc3o2)cc1O` is reported as 103%.
For `Cc1nc(N=Nc2ccc(S(=O)(=O)O)cc2S(=O)(=O)O)c(COP(=O)(O)O)c(C=O)c1O`, the remaining activity was 106%.
The remaining activity of `Cc1ccc2c(c1)c1c3n2CCNC3CCC1` (stereo not drawn) is reported as 100%.
`C[C@H]1O[C@H](O[C@H]2[C@H](O)[C@@H](O)[C@@H](O[C@H]3[C@H](O)[C@@H](O)C(O)O[C@@H]3CO)O[C@@H]2CO)[C@H](O)[C@@H](O)[C@@H]1N[C@H]1C=C(CO)[C@@H](O)[C@H](O)[C@H]1O` (stereo partly drawn) gave a remaining activity of 97.1%.

Sample 2
Compound: O=C(NS(=O)(=O)c1ccc(NCC2CCOCC2)c([N+](=O)[O-])c1)c1ccc(N2CCN(Cc3ccc(C(F)(F)F)cc3-c3ccc(Cl)cc3)CC2)cc1Oc1cnc2[nH]ccc2c1
Observed: cell-free assay
Method: competition with immobilised ligand
Tested at: 1 µM
ITK (Homo sapiens, UniProt Q08881) — remaining binding: 100%.
It gave 85% for remaining binding (IRAK4 (Homo sapiens, UniProt Q9NWZ3)).
NUAK2 (Homo sapiens, UniProt Q9H093) — remaining binding: 88%.
The remaining binding was 100% (RET (Homo sapiens, UniProt P07949, V804L)).
It gave 100% for remaining binding (Tyrosine-protein kinase JAK1, JH1 (JAK1, Homo sapiens, UniProt P23458)).
EGFR (Homo sapiens, UniProt P00533) — remaining binding: 84%.
It gave 100% for remaining binding (EPHA3 (Homo sapiens, UniProt P29320)).
WNK2 (Homo sapiens, UniProt Q9Y3S1) — remaining binding: 75%.
For AXL (Homo sapiens, UniProt P30530): remaining binding read 88%.
PIM3 (Homo sapiens, UniProt Q86V86) — remaining binding: 100%.
It gave 89% for remaining binding (PRKD1 (Homo sapiens, UniProt Q15139)).
NIM1K (Homo sapiens, UniProt Q8IY84) — remaining binding: 94%.
For TIE1 (Homo sapiens, UniProt P35590): remaining binding read 100%.
The remaining binding was 98% (STK25 (Homo sapiens, UniProt O00506)).
For RIOK2 (Homo sapiens, UniProt Q9BVS4): remaining binding read 90%.
CSK (Homo sapiens, UniProt P41240) — remaining binding: 87%.

Sample 3
Host: human
Medium: microsomes or S9
Tested at: 2 µM
Time: 0.5 h
`CC(C)CCN1CC2(CCCN(C(=O)c3ccc(=O)n(C)n3)C2)CCC1=O` (stereo not drawn) gave a remaining compound of 62.5%.
`COc1ccc2[nH]cc(CCNC(=O)CCC(=O)N3Cc4cccn4-c4ccccc43)c2c1` has a remaining compound of 2.04%.
The remaining compound of `CC(C)CN1CCN(S(=O)(=O)c2ccc(-c3nnc(C(C)C)o3)o2)CC1` is reported as 30.1%.
For `Cc1cc(C(=O)N2CCOCC2)c2c(=O)n(Cc3ccccc3C)c(=O)n(-c3ccccc3)c2n1`, the remaining compound was 14.6%.
`Clc1cc(Cl)cc(-c2ccc(CNCc3ccncc3)o2)c1` gave a remaining compound of 54.1%.

Sample 4
Target: Calcium/calmodulin-dependent protein kinase type II subunit alpha (CAMK2A, Homo sapiens, UniProt Q9UQM7)
Chain of UniProt Q9UQM7 (whole entry, looked up): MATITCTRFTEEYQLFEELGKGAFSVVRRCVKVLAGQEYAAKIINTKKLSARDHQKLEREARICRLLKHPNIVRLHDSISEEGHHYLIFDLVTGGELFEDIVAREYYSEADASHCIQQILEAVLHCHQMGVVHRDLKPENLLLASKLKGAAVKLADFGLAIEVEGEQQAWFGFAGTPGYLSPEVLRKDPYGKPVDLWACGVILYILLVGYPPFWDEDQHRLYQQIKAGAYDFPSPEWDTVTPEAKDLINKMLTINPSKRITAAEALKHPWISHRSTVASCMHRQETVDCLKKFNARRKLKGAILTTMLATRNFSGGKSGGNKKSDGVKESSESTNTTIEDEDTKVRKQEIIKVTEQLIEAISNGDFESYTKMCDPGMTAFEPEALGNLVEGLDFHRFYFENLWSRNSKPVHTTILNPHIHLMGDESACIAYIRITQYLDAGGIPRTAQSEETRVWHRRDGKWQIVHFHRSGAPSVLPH
Observed: enzyme activity
Action: inhibitor
Tested at: 10 µM
The inhibition of `O=C1CCCCC1=O` is reported as -65%.
`CC(C)[C@H]1CC[C@H](C(=O)N[C@H](Cc2ccccc2)C(=O)O)CC1` gave an inhibition of 5%.
For `CC(C)=CCc1c(O)cc2oc3cc(O)c(O)c(CCC(C)(C)O)c3c(=O)c2c1O`, the inhibition was -33%.
With `C[C@@H]1CC[C@]2(C(=O)O)CC[C@]3(C)C(=CC[C@@H]4[C@@]5(C)C[C@@H](O)[C@@H](O)C(C)(C)[C@@H]5CC[C@]43C)[C@@H]2[C@]1(C)O` the inhibition was 2%.
`COc1ccc(-c2nc3cc(C4=NNC(=O)CC4C)ccc3[nH]2)cc1` (stereo not drawn) has an inhibition of 5%.

A few entries again (sample 4):
`CC(C)[C@H]1CC[C@H](C(=O)N[C@H](Cc2ccccc2)C(=O)O)CC1` gave an inhibition of 5%.
For `CC(C)=CCc1c(O)cc2oc3cc(O)c(O)c(CCC(C)(C)O)c3c(=O)c2c1O`, the inhibition was -33%.
With `C[C@@H]1CC[C@]2(C(=O)O)CC[C@]3(C)C(=CC[C@@H]4[C@@]5(C)C[C@@H](O)[C@@H](O)C(C)(C)[C@@H]5CC[C@]43C)[C@@H]2[C@]1(C)O` the inhibition was 2%.
